Measured values gathered from unrelated publications.
Each numbered part is a random draw from the data of one study; scales do not carry over between parts. Changes are numbered by the printed parent chain.

Study 1
Target: RING finger protein unkempt homolog, zinc fingers 1-6, SBP tag (UNK, Homo sapiens, UniProt Q9C0B0, residues 30-357)
Chain of UniProt Q9C0B0 (30-357, looked up): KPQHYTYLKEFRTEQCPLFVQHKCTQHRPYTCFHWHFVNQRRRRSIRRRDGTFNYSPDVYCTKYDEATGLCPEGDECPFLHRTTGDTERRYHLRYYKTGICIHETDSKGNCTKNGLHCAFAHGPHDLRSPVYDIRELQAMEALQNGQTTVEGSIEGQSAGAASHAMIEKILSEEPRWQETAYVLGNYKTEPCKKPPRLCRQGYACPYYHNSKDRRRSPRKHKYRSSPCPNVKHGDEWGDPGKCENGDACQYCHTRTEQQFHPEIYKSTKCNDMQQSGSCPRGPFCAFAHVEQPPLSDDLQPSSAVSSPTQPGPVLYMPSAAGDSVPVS
Method: RNA Bind-n-Seq
Molecule type: RNA
Medium: in vitro
Concentration: 100 nM
Notes: RNA with constant flanks, vertebrate orthologous sites, ends assumed
Baseline: input RNA pool
Reading: higher = stronger binding
Constant ends, left off below: GGGAGUUCUACAGUCCGACGAUC … CAACAGAGGAUUGAGCAUCA
For `CCUGAAGCUUUGUGUUUGGCUGCACCUGCAUAAGCUGCUACAAAUAGAAUAAAGAAUUCAUAGCCUGUAUCUAUCAUUUAGAUGCAUGGAAAAAUGGGCUUUGCACACAAUGGGUUUGAA`, the bound/input enrichment was 2.03 ratio.
The bound/input enrichment of `UACUGUUGUUAAGCACUGUUCCAGACCGUGUCUGACUUUAGUGUAACCUAGGAGAUUUUAUAGUUUUAUUUUAAUGGAAUCCUGCCUGAUGCAGAGCAGUGGGGAGAGCAGUCUUCUACG` is reported as 2.54 ratio.
`CCGAAAGGCCAAAUUCCCUCCUCUCUUCUACUGCUUCUACCAACUGGAAGCACAGAAAACUAGAAUUUCAUUAUUUUGUUUUGAAAAAAUAUAUGUUGAUUUCUUGUAACAUCCAAUAGG` gave a bound/input enrichment of 0.542 ratio.
`UCUCUCGUUUUAUAUGUCCAAAACUGGCUAUGACUUUUUAAAACAUUUGCUAGUUUUAAUUAGUUCUGCCCUCAUGAAGUAGCAUUAGAGUCUGUCACUAACAGAUACCUGUCUGUAUAC` has a bound/input enrichment of 0.367 ratio.
`AACAUGGUGGUUGUACAUUAUUUCAUUUAGAAAAUAUAAACUUUAAUUUUGUUUUGAAGUUAGGUGUUAAACUGGAAUAGUUAUCAUACCCCAGAUAAUGGGGCAGUUGUGCCCUUCCCU` gave a bound/input enrichment of 2.37 ratio.
The bound/input enrichment of `AAAUUUAUUUCAUGCCCUGGACUCCCUACCGUACUGAUACUCUGAUAGAAUAUGCUUCUUUAGAAGAUUUCCAAAAUAGUCGCCAGACAACAACAUAUAAACUUCCUAAUCGAGUAGAUG` is reported as 0.873 ratio.
`UGUCCUUGCUAAGCACUGCGUUCCAGACCGUGUCUGACUUAGUUAACCUAGGAGAUUUUAUAGUUUUACUUUAAUGAAGUCCUGAUUAACACAGAGCAGUGGAGAGACCGUGCCCCUGUG` has a bound/input enrichment of 0.459 ratio.
The bound/input enrichment of `GAUGUUGAUUUCUAUUUAUGUUGGAUUCAUUUUCUGUUAUGGUUUUAAUUUGCUAUACCAAAAUGGUGUUCGUAAAAAUUGACCUGUAAUGGGAGUUGCUAUAGUGAAAUGCAAUAUGUU` is reported as 0.279 ratio.

Study 2
Target: CCNB1, cyclin fold, Cln2 fusion (human)
Method: yeast growth competition, sequencing
Medium: yeast
Notes: strong parent motif
Baseline: not given
Reading: higher = stronger binding
Parent: MICAL3 docking peptide (human); LQLRRQLSFSEDS; partner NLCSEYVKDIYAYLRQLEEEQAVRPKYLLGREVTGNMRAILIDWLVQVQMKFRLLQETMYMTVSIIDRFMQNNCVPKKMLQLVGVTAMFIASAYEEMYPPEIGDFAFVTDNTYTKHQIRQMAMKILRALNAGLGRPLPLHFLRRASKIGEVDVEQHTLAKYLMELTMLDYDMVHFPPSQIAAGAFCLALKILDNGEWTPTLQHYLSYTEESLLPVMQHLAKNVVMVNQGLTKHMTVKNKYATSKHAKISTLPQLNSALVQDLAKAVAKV
`LQLRRQLSFKEDS [S10K]` — result for “normalised enrichment score”: 2.76.
Under “normalised enrichment score”, `LQLRRQNSFSEDS [L7N]` is recorded as -0.0473.
`LQLRRQLCFSEDS [S8C]`: “normalised enrichment score” 1.46.
For `LQLRRQCSFSEDS [L7C]`, “normalised enrichment score” read 0.0403.
For `LQLSRQLSFSEDS [R4S]`, “normalised enrichment score” read 3.06.
Under “normalised enrichment score”, `LQLRRQLSFSFDS [E11F]` is recorded as 1.63.
`LQLRRQLSISEDS [F9I]` — result for “normalised enrichment score”: -0.0876.
For `LQLRQQLSFSEDS [R5Q]`, “normalised enrichment score” read 0.496.
`LQLRDQLSFSEDS [R5D]` — result for “normalised enrichment score”: -0.0571.
`LQLRWQLSFSEDS [R5W]`: “normalised enrichment score” 1.11.
`LQLRRQLSFSQDS [E11Q]` — result for “normalised enrichment score”: 3.01.
Under “normalised enrichment score”, `LQLRRQLKFSEDS [S8K]` is recorded as 1.17.
`LQLRRQLSPSEDS [F9P]`: “normalised enrichment score” 0.0506.

Study 3
Target: ABI1, truncated, D143A, DHFR fusion (Arabidopsis thaliana)
Method: DHFR PCA, deep sequencing
Medium: yeast
Notes: methotrexate growth selection, single substitutions
Added: (+)-ABA 2500 µM
Baseline: wild-type fitted maximum
Reading: higher = stronger binding
Parent: PYL1, truncated, DHFR fusion (Arabidopsis thaliana); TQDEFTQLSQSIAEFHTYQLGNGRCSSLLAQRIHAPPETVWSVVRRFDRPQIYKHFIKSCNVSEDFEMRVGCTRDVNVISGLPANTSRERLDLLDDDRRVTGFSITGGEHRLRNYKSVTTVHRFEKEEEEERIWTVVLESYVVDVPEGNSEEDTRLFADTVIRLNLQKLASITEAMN; partner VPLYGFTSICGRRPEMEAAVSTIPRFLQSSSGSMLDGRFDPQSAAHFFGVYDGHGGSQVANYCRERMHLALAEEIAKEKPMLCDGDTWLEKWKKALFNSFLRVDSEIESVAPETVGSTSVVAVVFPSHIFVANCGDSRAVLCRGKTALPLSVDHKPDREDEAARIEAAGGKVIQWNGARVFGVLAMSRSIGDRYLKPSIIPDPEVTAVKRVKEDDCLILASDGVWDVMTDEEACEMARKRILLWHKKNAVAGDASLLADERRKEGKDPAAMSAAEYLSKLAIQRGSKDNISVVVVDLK
For `A170L`, “relative binding score” read 86.3%.
Under “relative binding score”, `S42D` is recorded as 110%.
Under “relative binding score”, `N22L` is recorded as 100%.
For `T6D`, “relative binding score” read 105%.
For `K116W`, “relative binding score” read 50.6%.
For `Q19A`, “relative binding score” read 101%.
For `D144L`, “relative binding score” read 82.2%.
`I33L`: “relative binding score” 80.2%.
For `E125T`, “relative binding score” read 97.5%.
`L29D`: “relative binding score” 40.6%.
`F5Y` — result for “relative binding score”: 88.8%.

Study 4
Target: Interferon regulatory factor 7, full length, phosphomimetic (IRF7, Homo sapiens, UniProt Q92985, residues 1-503, S101K/S471D/S472D/S475D/S476D/S477D/S483D/S484D/S487D)
Chain of UniProt Q92985 (whole entry, unmodified, looked up): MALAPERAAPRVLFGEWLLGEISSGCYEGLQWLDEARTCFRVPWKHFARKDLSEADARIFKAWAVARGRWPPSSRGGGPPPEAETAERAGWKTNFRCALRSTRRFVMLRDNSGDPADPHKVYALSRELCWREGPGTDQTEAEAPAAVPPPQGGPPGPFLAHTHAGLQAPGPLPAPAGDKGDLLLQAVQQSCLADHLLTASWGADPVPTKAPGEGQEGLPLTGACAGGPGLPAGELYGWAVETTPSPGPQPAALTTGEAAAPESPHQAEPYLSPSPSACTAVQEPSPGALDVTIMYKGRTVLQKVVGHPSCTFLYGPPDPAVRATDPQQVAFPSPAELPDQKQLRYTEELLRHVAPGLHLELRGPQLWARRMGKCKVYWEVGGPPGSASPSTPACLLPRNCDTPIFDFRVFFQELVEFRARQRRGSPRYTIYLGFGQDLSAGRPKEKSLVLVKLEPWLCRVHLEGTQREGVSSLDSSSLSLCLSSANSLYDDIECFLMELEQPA
Method: protein-binding microarray
Molecule type: double-stranded DNA, one strand shown
Medium: in vitro
Concentration: 250 nM
Notes: 60-bp whole probe
Added: salmon DNA 0.4 mg/ml
Baseline: random background probes
Reading: higher = stronger binding
Constant ends, left off below: GCCTAGCAC … GTCTTGATTCGCTTGACGCTGCTG
`TCATTTTTCATTATTGTACTGTGCTAG` has a log fluorescence of 1.46 z-score.
`TTAGGGATCGGACTGGGTTAGTGCTAG` gave a log fluorescence of -0.12 z-score.
`GACGGTATCCTTTTCCTGAAGTGCTAG` has a log fluorescence of 0.986 z-score.
For `GACGGACCGCTTATCCTGACGTGCTAG`, the log fluorescence was 0.00015 z-score.
`GACGGACTCGGTATCGGGACGTGCTAG` has a log fluorescence of 1.18 z-score.
The log fluorescence of `TTAGTACTGGGGTTTCGGTTAGTGCTA` is reported as 5.46 z-score.
`GGAGAGTTCCAGGAGGTCGAGTGCTAG` has a log fluorescence of -0.766 z-score.
`TCATTTATCCCTGACAGACTGTGCTAG` gave a log fluorescence of 1.34 z-score.
`TTAGCTATCGACTATCGGTTAGTGCTA` gave a log fluorescence of -0.288 z-score.
`TTAGGACTGCTTTTGCTTTAGTGCTAG` has a log fluorescence of 0.595 z-score.
The log fluorescence of `GACGATTTCAGTATCGACACGTGCTAG` is reported as 0.316 z-score.
With `GACGGACTGGGGGCTGGGGACGTGCTA` the log fluorescence was 0.81 z-score.
The log fluorescence of `TTAGATATCGGGTTTCGCTTAGTGCTA` is reported as 4.54 z-score.
`TTAGATAGCAGTTTCGATTAGTGCTAG` has a log fluorescence of 8.07 z-score.
For `GGATATATATCATTTAATTAGTGCTAG`, the log fluorescence was -0.161 z-score.
With `TTAGAACTGCGTATCGATTAGTGCTAG` the log fluorescence was -0.0342 z-score.
`GACGCACTGGACACTGGGGACGTGCTA` has a log fluorescence of -0.239 z-score.
With `GACGAACGGAGTTTCGAGACGTGCTAG` the log fluorescence was 3.64 z-score.
For `TTAGGCATCGGGACTGGGTTAGTGCTA`, the log fluorescence was -0.458 z-score.

A few entries again (study 4):
`GACGGACTCGGTATCGGGACGTGCTAG` has a log fluorescence of 1.18 z-score.
The log fluorescence of `TTAGTACTGGGGTTTCGGTTAGTGCTA` is reported as 5.46 z-score.
`GGAGAGTTCCAGGAGGTCGAGTGCTAG` has a log fluorescence of -0.766 z-score.
